Measurements pooled from the literature.
Each numbered part is a random draw from the data of one study; scales do not carry over between parts. Positions count from the first letter of the parent shown.

Sample 1 — technique: protein-binding microarray; molecule type: double-stranded DNA, one strand shown; sample: in vitro; concentration: 2540 nM top; setting: 60-bp whole probe; together with: salmon DNA 0.4 mg/ml; baseline: random background probes; reading: higher = stronger binding; endpoint: fitted relative affinity; shared flanks, not repeated: GCCTAGCAC … GTCTTGATTCGCTTGACGCTGCTG
Target: Interferon regulatory factor 3, full length, phosphomimetic (IRF3, Homo sapiens, UniProt Q14653, residues 1-427, S386D/S396D/S398D/S402D/T404D/S405D)
Residues (chain): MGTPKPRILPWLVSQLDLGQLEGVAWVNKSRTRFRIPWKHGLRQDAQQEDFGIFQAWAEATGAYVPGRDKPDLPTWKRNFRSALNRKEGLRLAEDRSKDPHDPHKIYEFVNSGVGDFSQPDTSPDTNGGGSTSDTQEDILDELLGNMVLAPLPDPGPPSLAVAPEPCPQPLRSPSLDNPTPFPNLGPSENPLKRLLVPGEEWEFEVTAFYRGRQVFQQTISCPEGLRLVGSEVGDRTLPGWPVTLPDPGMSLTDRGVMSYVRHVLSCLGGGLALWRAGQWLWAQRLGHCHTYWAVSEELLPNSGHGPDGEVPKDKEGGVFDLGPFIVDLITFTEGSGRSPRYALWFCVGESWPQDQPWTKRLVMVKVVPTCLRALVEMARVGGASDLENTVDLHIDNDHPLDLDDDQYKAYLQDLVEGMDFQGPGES
GACGAACTGGTGACTGGAGACGTGCTA: -0.457 z-score
GATGATATCGGGTTTCGAGACGTGCTA: 0.931 z-score
GACGGTATCGGGTGTCGGGACGTGCTA: 1.1 z-score
GACGGTATCGGTTTCGGGATGTGCTAG: 6.65 z-score
TCAATTTTGGTTTTCATACTGTGCTAG: 3.8 z-score
TTAGATCTCAGACTGGAATAGTGCTAG: 0.0732 z-score
GTCGGTATCGGTTTCGGGACGTGCTAG: 8.2 z-score
GACGATCTAAGACTGGAGACGTGCTAG: -0.0147 z-score
TTAGGATTGGGTTTCGGTTAGTGCTAG: 3.35 z-score
TTAGATATCGGGTATCGTTTAGTGCTA: 0.54 z-score
TTAGGTATCGGGATTGGGTTAGTGCTA: 1.37 z-score
GGGCACGTTGTTTAACTTCTGTGCTAG: -0.894 z-score
TTAGGTCTGGGACTGGGTTAGTGCTAG: -1.08 z-score
TTAGGTTTCGGGTATCTGTTAGTGCTA: 3.97 z-score
GACGATTCCAGTTTCGAGAAGTGCTAG: 2.82 z-score
TCATCTTTCCATACTGCACTGTGCTAG: 3.26 z-score
GACGCTATCAGACTGGAGACGTGCTAG: -0.107 z-score
GACGGCATCCTTTTCCTGACGTGCTAG: 1.32 z-score
GTAGGCTTCTATGTAGTTGAGTGCTAG: -0.748 z-score
GAGTCTTCCCTTTTAAGTTCGTGCTAG: 2.79 z-score
TTGGGTTCCCTTTTCCTTTAGTGCTAG: 6.53 z-score
TTAGGTCCCCTTATCCTTTAGTGCTAG: 1.86 z-score
TTAGGTATCGGTATCGGTTAGTGCTAG: 5.32 z-score
GACGATTACGGGTATCGAGACGTGCTA: -0.0295 z-score
GACGTTATCGGTCTCGGGACGTGCTAG: 2.12 z-score

Sample 2 — target: CCNA2, cyclin fold, Cln2 fusion (human); technique: yeast growth competition, sequencing; sample: yeast; setting: strong parent motif; baseline: not given; reading: higher = stronger binding; endpoint: normalised enrichment score
Parent: E2F1 docking peptide (human); PPVKRRLDLETDH
PPVKRRLDLENDH [T11N]: 3.81
PPVKRRLDLEQDH [T11Q]: 4.28
PPVKRRLDLEFDH [T11F]: 6.17
PPVKARADLETDH [R5A L7A]: -0.143
PPVLRRLDLETDH [K4L]: 0.331
CPVKRRLDLETDH [P1C]: 3.69
PPVKRRLDLEDDH [T11D]: 3.58
PPVKRCLDLETDH [R6C]: 2.81
PPVKRRLDLETQH [D12Q]: 4.85
PPVRRRLDLETDH [K4R]: 5.64
PHVKRRLDLETDH [P2H]: 3.86
YPVKRRLDLETDH [P1Y]: 5.35
PPVKRRRDLETDH [L7R]: 0.465
PPVKRRLDLITDH [E10I]: 2.71
PPVKERLDLETDH [R5E]: 0.439
PPKKRRLDLETDH [V3K]: 0.694
PPVYRRLDLETDH [K4Y]: 1.62
PPVKRKLDLETDH [R6K]: 2.88
PPVKWRLDLETDH [R5W]: 0.519
PPVKRRLDLSTDH [E10S]: 4.09
PPVKKRLDLETDH [R5K]: 1.05
PPVKRRLDLRTDH [E10R]: 3.34
PPVKRRLDLTTDH [E10T]: 4.35
PPCKRRLDLETDH [V3C]: 4.83
PPNKRRLDLETDH [V3N]: 1.31

Sample 3 — technique: DHFR PCA, deep sequencing; sample: yeast; together with: (+)-ABA 0.11 µM; baseline: wild-type fitted maximum; reading: higher = stronger binding; endpoint: relative binding score
Target: ABI1, truncated, D143A, DHFR fusion (Arabidopsis thaliana)
Setting: methotrexate growth selection, single substitutions
Parent: PYL1, truncated, DHFR fusion (Arabidopsis thaliana); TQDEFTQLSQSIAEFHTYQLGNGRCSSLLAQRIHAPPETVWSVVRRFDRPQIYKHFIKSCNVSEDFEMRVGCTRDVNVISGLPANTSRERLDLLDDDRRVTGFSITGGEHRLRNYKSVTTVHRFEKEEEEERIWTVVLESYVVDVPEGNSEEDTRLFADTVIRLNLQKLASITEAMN; partner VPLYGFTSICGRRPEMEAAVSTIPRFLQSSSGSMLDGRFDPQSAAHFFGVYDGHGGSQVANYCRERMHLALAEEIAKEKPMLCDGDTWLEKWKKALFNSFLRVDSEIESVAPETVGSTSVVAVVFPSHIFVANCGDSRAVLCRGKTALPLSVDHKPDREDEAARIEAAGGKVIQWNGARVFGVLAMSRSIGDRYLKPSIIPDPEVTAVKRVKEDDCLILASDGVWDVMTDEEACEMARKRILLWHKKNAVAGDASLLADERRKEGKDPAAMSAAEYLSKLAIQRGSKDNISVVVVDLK
E125C: 53.8%
E130H: 31.1%
V62Y: -4.29%
R24T: 19.7%
V44F: -2.93%
F103Q: -4.63%
G21A: 30%
L112N: -6.8%
G21I: 16.1%
I105Y: -8.61%
A35G: -0.526%
L8Y: 29.9%
V70N: 2.73%
T39F: 1.21%
R132V: 30.6%
Y141C: 7.11%
F66C: 7.29%

Sample 4 — technique: RNAcompete; molecule type: RNA; sample: in vitro; concentration: 20 nM; setting: 7-mer, probes averaged, single round; baseline: mean of 7-mers; reading: higher = stronger binding; endpoint: 7-mer Z-score
Target: PABPC1L2, full length, GST fusion (mouse, UniProt A0ABA7IW68)
Construct (chain): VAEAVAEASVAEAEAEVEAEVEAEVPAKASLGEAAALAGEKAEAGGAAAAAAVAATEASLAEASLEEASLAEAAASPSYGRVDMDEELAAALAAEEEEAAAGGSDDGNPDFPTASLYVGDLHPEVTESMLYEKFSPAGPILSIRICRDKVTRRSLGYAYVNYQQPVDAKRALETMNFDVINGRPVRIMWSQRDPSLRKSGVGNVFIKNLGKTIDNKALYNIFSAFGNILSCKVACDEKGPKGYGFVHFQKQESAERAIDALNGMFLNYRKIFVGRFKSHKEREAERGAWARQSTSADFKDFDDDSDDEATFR
UUAUGCC: -0.282
AGCGUCU: -0.26
UGGGGCG: 0.369
CUCGUGC: -0.293
UAAUCGA: 0.0515
UGUUCGA: -0.266
GCGGAUA: 0.157
AUACCUU: -0.291
UUCAAAC: -0.146
UCACCGG: -0.228
AGCAUAG: -0.0989
UAUAGGG: -0.0627
UGUGAAG: -0.0446
AUAAACC: 1.01
ACAUUGA: 0.187
AGGCCCA: -0.0645
CGGUUUU: -0.275
GACCUGG: -0.121
UAUAAGC: -0.144
UGUUUGG: -0.449
GUGCGAC: 0.0515
UCAAGCG: -0.00289
ACUCCGG: -0.0935
UGCCACC: -0.2
CGUACAA: 0.104

Sample 5 — technique: RNA Bind-n-Seq; molecule type: RNA; sample: in vitro; concentration: 365 nM; baseline: no-protein control; reading: higher = stronger binding; endpoint: RBNS enrichment (R)
Target: RNA binding protein fox-1 homolog 2, RRM domain, GST-SBP tag (RBFOX2, Homo sapiens, UniProt O43251-10, residues 100-194)
Setting: natural RNA segment, single round, ends assumed
Shared flanks, not repeated: GGGAGUUCUACAGUCCGACGAUC … UGGAAUUCUCGGGUGCCAA
Target sequence (chain): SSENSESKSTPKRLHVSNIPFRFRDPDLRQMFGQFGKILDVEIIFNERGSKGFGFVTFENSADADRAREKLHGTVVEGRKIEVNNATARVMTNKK
AUGCGUGAGCCUCCAAGGCACAGCCCAGGGAAGCCUCCCCAGAGUCAGGUAACAACCAGAUGGCUUCACUGAAACCUGCUUUUGUAAAUUACUUUUUUUUACUGUUGCUG: 0.331
UGCUAGGUUGAAGUUCACCAUGUUUAAAAAAAAUGGGGGGCAUGGAUUUACAUUACAAAGGCGUCCACGGUGUAUUAGUGACAUUCUUCCAUUGACAUUUAGAGUGAAAU: 0.367
CAUAGUUUGGGAGAUGGACAUUAAAGGGGCUAGAGGCCUAUAUGUGGCUGGUGUUGGUGACCCUGAUGUAUGGCAGAGCCCUUGGGGAGAAGAGACCCUGAGGGAAGGGC: 1.29
UGGGCUGGGUUUGUUUACUCCAACUUCCCUUCUACACCCCUCCUGCAGGACAGUACGAUUUGGGGAGAACCCAGCUCCCCACUUUAUCUGCAGACUCUGGGACCUGACAA: 0.587
GCAUCUGAUUGGCAGGCAGGCCCAGGAUGUGCUGUGCCAAAGCCAGGUCUACUCCAAAGUCCUCUCUGCCAUCUUCGGACCAUCCUGGCCCUACUUCUGUGUGCUCGAGC: 0.354
CCCCUUCCCGUCUGCCCUGUGUCCUCACUGCGUGUGGGUAUGACCUCUGCCUGGUGGCUGGUGUAUCCCAACUGGGCAAGAGAUGGCAGAGGGUCCCCCUUGUGGGUGCG: 0.311
UGUUUACUACCGUGGUUCCUACAGGGCAGAAACGGAUAAUGGUGUUGUGUGGUACACCUGGCAUGGGUGGUGGUAUUCCUUGAAAUCUGUGGUUAUGAAAAUUAGGCCAA: 7.73
GGCUCAUUCAAAGUUAAAAUCAGAGUCUCAGAGUUAAAACAGACAUUAAUGACUUAUCCAACCCUGUUUUUCUAAAAAGAAAGGUAACAGGCAAAAAGUGUGUUGCCGAG: 0.44
UAGCCAUCAUAACUCACUAACAGGGAGAAGUAGCUAGUAGCAAUGUGCCUUGAUUGAUUAGAUAAAGAUUUCUAGUAGGCAGCAAAAGACCAAAUCUCAGUUGUUUGCUU: 0.384
UAAGCUUCUCUAGUGAGGCAUUCUGAGCAGUGGUGAUCACAUGCCAGAUCGCCCUGCCUAUCCACAAAGUAGAUGACCAAUGCACGCUCCUCAAACAUCUUUGGAGGAAC: 6.41
GGGAGCCAGGAAGUGACGUGUGUGUCAUGUUACGGACAUCUGACUUUUGUGUGUGUGUGUGUGGGCAUCUCGCUGUAAUUGGUGCUGAAAAGUUAUUUGUGUUCAACUGA: 0.524
AUAUAUUUUGCUGUGUAUAAAUUGAUAUUUUGCUAUGCAACUCCUGUAAUUGAAUUUGUAUAAUGCAGGCACUUUCUAAUUUAUUAGAGAUUAUGGAUCAGUUCUGACAU: 1.01
